Measured values from different studies.
Each line is one published result; not all experiments were run side by side. ± gives the spread as reported. ≈ marks a conversion by molar mass, not a printed value.
Organism: Staphylococcus aureus

| SMILES | test | test system | conditions | scale | measurement | value |
| --- | --- | --- | --- | --- | --- | --- |
| COc1cc(C=Cc2cc(-c3ccccc3)nc(O)n2)ccc1O | microbial growth, disc diffusion | ATCC29213 | 500 µg/mL |  | inhibition zone | 11.3 mm |
| CN(C)CCSc1nnc(C23CC4CC(CC(C4)C2)C3)n1C |  | IFO 3060 | 200 µg/disc, 24 h, 37 °C |  | inhibition zone diameter | 12 mm |
| CN[C@H](CC(C)C)C(=O)N[C@H]1C(=O)N[C@@H](CC(N)=O)C(=O)N[C@H]2C(=O)N[C@H]3C(=O)N[C@H](C(=O)N[C@H](C(=O)O)c4cc(O)cc(O)c4-c4cc3ccc4O)[C@H](O)c3ccc(c(Cl)c3)Oc3cc2cc(c3O[C@@H]2O[C@H](CO)[C@@H](O)[C@H](O)[C@H]2O[C@H]2C[C@](C)(N)[C@H](O)[C@H](C)O2)Oc2ccc(cc2Cl)[C@H]1O |  | ATCC 33591 MRSA, neutropenic mouse thigh infection, thigh tissue | ip, 12 mg/kg twice 12 h apart, 24 h post-infection |  | bacterial load | 4.8 log CFU/g |
| CCC(=O)O[C@H]1[C@H](C)O[C@@H](O[C@H]2[C@H](N(C)C)[C@@H](O)[C@H](O[C@H]3[C@@H](CC=O)C[C@@H](C)[C@@H](O)/C=C/C=C/C[C@@H](C)OC(=O)C[C@@H](O)[C@@H]3OC)O[C@@H]2C)C[C@@]1(C)O |  | 134/93 methicillin-resistant, DMSO-methanol | 50 µL of 2.0 mM, 24 h, 37 °C, 9 mm well |  | inhibition zone diameter | 10 mm |
| CC[C@H]1OC(=O)[C@H](C)[C@@H](O[C@H]2C[C@@](C)(OC)[C@@H](O)[C@H](C)O2)[C@H](C)[C@@H](O[C@@H]2O[C@H](C)C[C@H](N(C)C)[C@H]2O)[C@](C)(OC)C[C@@H](C)C(=O)[C@H](C)[C@@H](O)[C@]1(C)O | checkerboard broth microdilution | clinical isolate 14-99 | with: magainin II |  | FIC index | 0.75 |
| CN(C)c1cc(NC(=O)CNC(C)(C)C)c(O)c2c1C[C@H]1C[C@H]3[C@H](N(C)C)C(O)=C(C(N)=O)C(=O)[C@@]3(O)C(O)=C1C2=O |  | MRSA 5 tetM, mouse thigh infection model | sc, 20 mg/kg, 24 h | baseline: untreated control | log10 CFU change | 3.74 log10 |
| CCc1cc(=O)c2c(OCC3CO3)c3ccoc3c(OC)c2o1 (centres unmarked) | microbial growth, broth dilution | NCTC4163 | 19 h |  | MIC | > 256 µg/mL |
| Oc1ccc(-c2nc(-c3ccc(Oc4ccc(C(F)(F)F)cc4)cc3)no2)cc1 | survival | ATCC 27660 MRSA, mouse, peritonitis | oral |  | ED50 | 44 mg/kg |
| CCc1cc(=O)c2c(OCC(O)CN3CCOCC3)c3ccoc3c(OC)c2o1 (centres unmarked) | microbial growth, broth dilution | ATCC6538 | 19 h |  | MIC | > 256 µg/mL |
| CCOC(=O)CSc1nnc(C23CC4CC(CC(C4)C2)C3)n1-c1ccccc1 |  | IFO 3060 | 200 µg/disc, 24 h, 37 °C |  | inhibition zone diameter | 22 mm |
| CCc1cc(=O)c2c(OCC(O)CN3CCC(C)CC3)c3ccoc3c(OC)c2o1 (centres unmarked) | microbial growth, broth dilution | NCTC4163 | 19 h |  | MIC | > 256 µg/mL |
| CN(C)c1cc(CNCC(C)(C)C)c(O)c2c1C[C@H]1C[C@H]3[C@H](N(C)C)C(O)=C(C(N)=O)C(=O)[C@@]3(O)C(O)=C1C2=O |  | MRSA 5 tetM, mouse thigh infection model | sc, 20 mg/kg, 24 h | baseline: untreated control | log10 CFU change | 2.49 log10 |
| Nc1ccc(C(=O)O)cc1 | radiotracer uptake, competitor |  | with: 2-[18F]F-labelled compound |  | IC50 | 1000 ± 900 nM |
| CC1(C)S[C@@H]2[C@H](NC(=O)[C@H](N)c3ccccc3)C(=O)N2[C@H]1C(=O)O | microbial growth, disc diffusion | MTCC96 | 100 µg/mL, 24 h |  | inhibition zone | 23 mm |
| COCCSc1nnc(C23CC4CC(CC(C4)C2)C3)n1-c1ccccc1 |  | IFO 3060 | 200 µg/disc, 24 h, 37 °C |  | inhibition zone diameter | < 10 mm |
| O=C(O)CNC(=O)Cn1ccc2ccc(Br)cc21 |  | Newman, mouse, sepsis model | subcutaneous, 60 mg/kg, 19 days, with: gentamicin 2 mg/kg |  | survival | 50% |
| C[C@@H](O)[C@H]1C(=O)N2C(C(=O)O)=C(S[C@@H]3CN[C@H](C(=O)N(C)C)C3)[C@H](C)[C@H]12 | checkerboard broth microdilution | ATCC 27853 | with: ranalexin |  | FIC index | 0.75 |
| O=C(/C=C/C=C/c1ccccc1)c1ccccc1OCCBr | microbial growth, well diffusion | MTCC96 | 1000 µg/mL, 18 h |  | inhibition zone | 7 mm |
| CC[C@H]1OC(=O)[C@H](C)[C@@H](O[C@H]2C[C@@](C)(OC)[C@@H](O)[C@H](C)O2)[C@H](C)[C@@H](O[C@@H]2O[C@H](C)C[C@H](N(C)C)[C@H]2O)[C@](C)(O)C[C@@H](C)C(=O)[C@H](C)[C@@H](O)[C@]1(C)O |  | hospitalized pneumonia patients, clinical isolates | Fine score 70 or more |  | susceptible isolates | 38.5% |
| O=C(O)c1cn(C2CC2)c2cc(N3CCNCC3)c(F)cc2c1=O | respiratory activity, inhibitor, MTT | ATCC 29213 | concentration not given | at least 70% inhibition | lowest effective concentration | 32 × MIC |
| CCc1cc(=O)c2c(OCC(O)CNC(C)C)c3ccoc3c(OC)c2o1 (centres unmarked) | microbial growth, broth dilution | NCTC4163 | 19 h |  | MIC | > 256 µg/mL |
| CC[C@H]1OC(=O)[C@H](C)[C@@H](O[C@H]2C[C@@](C)(OC)[C@@H](O)[C@H](C)O2)[C@H](C)[C@@H](O[C@@H]2O[C@H](C)C[C@H](N(C)C)[C@H]2O)[C@](C)(O)C[C@@H](C)CN(C)[C@H](C)[C@@H](O)[C@]1(C)O |  | hospitalized pneumonia patients, clinical isolates | Fine score 70 or more |  | susceptible isolates | 38.5% |
| C[C@H]1c2cccc(O)c2C(=O)C2=C(O)[C@]3(O)C(=O)C(C(N)=O)=C(O)[C@@H](N(C)C)[C@@H]3[C@@H](O)[C@@H]21 | checkerboard broth microdilution | clinical isolate 15-99 | with: magainin II |  | FIC index | 0.75 |
| CCSC1CC(=O)C(C)(CCC(=O)Nc2c(O)ccc(C(=O)O)c2O)C2C3CC4CC12CC4(C)O3 (centres unmarked) |  | MRSA, BALB/c mice burn wound, skin | topical, 2% ointment twice daily, 7 days |  | viable bacteria in skin | 8.6e+06 CFU/g |
| CO/N=C(\C(=O)N[C@@H]1C(=O)N2C(C(=O)O)=C(CSc3nc(=O)c(=O)[nH]n3C)CS[C@H]12)c1csc(N)n1 | checkerboard broth microdilution | clinical isolate 15-99 | with: magainin II |  | FIC index | 0.25 |
| c1ccc(CN(CCN(Cc2ccccn2)Cc2ccccn2)Cc2ccccn2)nc1 | microbial killing | MRSA |  |  | MBC | 375 µM (≈ 159 µg/mL) |
